# Measured values from different studies.
# Parts stem from different laboratories: compare values within a part only. “And” joins repeats or separate records; there may be more than shown.
# Chain of UniProt Q9BZL6 (whole entry, looked up): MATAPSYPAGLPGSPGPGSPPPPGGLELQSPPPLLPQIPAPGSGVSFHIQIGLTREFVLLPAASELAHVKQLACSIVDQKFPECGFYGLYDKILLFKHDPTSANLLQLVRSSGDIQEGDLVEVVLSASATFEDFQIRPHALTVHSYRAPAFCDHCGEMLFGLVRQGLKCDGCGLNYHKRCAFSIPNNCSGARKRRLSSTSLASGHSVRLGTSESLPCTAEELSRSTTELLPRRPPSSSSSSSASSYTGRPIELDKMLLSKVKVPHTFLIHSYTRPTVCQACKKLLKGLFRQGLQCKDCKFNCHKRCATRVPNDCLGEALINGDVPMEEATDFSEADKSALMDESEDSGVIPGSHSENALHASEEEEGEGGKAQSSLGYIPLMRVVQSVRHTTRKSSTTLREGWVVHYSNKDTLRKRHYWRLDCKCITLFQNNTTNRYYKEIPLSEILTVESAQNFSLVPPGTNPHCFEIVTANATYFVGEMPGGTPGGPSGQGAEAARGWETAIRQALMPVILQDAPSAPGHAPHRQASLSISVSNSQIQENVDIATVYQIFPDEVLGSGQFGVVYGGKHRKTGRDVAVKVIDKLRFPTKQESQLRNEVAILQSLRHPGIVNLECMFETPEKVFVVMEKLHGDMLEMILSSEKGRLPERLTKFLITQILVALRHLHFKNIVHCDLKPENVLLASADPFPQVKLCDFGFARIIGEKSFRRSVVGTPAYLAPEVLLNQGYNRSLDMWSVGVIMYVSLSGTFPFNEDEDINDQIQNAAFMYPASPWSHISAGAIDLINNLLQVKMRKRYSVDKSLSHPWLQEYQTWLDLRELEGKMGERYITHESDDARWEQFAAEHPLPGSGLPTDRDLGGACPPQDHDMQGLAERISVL
# Chain of UniProt O96013 (whole entry, looked up): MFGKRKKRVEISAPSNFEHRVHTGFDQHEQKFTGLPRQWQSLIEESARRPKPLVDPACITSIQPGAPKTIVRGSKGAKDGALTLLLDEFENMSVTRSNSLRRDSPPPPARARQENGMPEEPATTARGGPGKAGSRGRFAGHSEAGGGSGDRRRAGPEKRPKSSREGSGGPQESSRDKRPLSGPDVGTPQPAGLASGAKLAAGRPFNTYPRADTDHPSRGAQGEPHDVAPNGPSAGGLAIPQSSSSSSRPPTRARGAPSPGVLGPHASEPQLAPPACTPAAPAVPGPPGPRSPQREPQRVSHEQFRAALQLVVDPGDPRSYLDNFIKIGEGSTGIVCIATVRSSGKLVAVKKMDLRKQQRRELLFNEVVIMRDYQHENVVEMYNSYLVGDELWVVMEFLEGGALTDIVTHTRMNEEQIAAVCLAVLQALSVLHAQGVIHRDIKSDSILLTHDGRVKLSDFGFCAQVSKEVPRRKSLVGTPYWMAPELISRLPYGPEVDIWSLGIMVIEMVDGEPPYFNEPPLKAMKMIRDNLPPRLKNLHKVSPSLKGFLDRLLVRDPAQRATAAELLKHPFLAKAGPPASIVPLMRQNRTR
# Chain of UniProt P23443 (whole entry, looked up): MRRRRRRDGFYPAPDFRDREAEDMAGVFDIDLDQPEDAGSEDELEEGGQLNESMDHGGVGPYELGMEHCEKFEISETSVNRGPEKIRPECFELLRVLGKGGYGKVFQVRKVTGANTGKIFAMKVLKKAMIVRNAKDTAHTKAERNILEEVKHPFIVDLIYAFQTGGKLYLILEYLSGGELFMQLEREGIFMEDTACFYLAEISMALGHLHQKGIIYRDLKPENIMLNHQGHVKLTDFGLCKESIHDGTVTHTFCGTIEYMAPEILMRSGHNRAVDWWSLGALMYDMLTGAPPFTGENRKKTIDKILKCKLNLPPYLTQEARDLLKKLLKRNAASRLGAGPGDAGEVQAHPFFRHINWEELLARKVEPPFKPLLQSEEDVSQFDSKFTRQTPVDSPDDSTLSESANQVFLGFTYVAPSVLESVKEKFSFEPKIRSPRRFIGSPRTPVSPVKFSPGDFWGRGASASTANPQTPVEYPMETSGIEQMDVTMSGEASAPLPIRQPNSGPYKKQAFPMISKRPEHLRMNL
# Chain of UniProt O94804 (whole entry, looked up): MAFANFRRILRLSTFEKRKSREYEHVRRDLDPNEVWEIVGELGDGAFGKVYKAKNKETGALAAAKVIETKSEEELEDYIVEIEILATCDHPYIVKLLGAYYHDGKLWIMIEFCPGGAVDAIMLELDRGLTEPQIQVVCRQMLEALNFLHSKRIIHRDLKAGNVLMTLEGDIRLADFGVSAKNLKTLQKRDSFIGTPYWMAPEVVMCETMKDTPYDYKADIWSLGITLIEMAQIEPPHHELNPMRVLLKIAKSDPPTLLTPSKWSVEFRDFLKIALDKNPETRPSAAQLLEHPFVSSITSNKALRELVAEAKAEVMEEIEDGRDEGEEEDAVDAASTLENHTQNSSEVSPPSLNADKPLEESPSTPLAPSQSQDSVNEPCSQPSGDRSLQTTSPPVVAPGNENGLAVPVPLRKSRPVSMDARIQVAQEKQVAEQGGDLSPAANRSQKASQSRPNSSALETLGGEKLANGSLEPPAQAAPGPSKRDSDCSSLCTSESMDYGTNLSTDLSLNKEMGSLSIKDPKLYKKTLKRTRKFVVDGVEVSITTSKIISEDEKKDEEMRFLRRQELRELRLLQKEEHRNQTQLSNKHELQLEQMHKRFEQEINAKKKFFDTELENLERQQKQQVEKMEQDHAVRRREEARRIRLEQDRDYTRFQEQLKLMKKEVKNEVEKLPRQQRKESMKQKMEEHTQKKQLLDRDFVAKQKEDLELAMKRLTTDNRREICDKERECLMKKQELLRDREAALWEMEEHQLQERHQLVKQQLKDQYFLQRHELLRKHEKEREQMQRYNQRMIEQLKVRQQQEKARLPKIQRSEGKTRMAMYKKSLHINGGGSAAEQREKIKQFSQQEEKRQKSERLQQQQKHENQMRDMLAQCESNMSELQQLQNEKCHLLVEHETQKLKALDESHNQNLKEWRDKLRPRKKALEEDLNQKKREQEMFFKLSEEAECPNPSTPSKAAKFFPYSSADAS
# Chain of UniProt O75582 (whole entry, looked up): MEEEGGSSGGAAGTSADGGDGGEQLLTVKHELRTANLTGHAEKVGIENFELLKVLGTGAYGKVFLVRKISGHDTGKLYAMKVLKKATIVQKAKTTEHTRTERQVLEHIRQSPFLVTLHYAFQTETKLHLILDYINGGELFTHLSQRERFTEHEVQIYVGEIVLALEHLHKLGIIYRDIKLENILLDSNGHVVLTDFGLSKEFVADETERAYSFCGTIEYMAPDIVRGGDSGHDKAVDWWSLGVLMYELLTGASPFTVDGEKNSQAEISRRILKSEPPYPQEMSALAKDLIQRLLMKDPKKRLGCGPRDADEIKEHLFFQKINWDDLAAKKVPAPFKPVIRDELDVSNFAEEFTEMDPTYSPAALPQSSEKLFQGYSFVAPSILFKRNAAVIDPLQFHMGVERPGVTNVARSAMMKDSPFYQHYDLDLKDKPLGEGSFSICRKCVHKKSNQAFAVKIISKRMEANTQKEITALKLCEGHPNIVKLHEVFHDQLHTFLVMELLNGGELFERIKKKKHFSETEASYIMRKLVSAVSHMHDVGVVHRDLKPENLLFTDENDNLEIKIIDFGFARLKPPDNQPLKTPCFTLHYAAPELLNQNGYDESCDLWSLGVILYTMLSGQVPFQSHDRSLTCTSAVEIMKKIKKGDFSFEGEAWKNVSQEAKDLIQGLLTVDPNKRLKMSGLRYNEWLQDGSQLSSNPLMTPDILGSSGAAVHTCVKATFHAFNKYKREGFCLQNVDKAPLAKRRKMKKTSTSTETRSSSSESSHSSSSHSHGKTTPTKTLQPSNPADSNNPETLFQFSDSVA
# Chain of UniProt P37173 (whole entry, looked up): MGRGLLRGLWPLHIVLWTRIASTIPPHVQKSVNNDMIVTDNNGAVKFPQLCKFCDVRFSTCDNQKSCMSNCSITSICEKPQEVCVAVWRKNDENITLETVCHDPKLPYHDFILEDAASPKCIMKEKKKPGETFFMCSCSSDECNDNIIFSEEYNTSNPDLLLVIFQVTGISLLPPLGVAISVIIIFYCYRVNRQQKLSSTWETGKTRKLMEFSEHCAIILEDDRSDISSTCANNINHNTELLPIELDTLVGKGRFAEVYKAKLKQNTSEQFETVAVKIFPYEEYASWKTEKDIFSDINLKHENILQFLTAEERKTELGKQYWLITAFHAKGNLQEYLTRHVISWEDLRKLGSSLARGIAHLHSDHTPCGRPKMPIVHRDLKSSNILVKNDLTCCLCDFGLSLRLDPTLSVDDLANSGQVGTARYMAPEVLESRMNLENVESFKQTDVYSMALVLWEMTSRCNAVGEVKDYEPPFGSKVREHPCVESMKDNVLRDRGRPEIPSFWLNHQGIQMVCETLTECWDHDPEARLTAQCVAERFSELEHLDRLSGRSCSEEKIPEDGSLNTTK
# Chain of UniProt P32298 (whole entry, looked up): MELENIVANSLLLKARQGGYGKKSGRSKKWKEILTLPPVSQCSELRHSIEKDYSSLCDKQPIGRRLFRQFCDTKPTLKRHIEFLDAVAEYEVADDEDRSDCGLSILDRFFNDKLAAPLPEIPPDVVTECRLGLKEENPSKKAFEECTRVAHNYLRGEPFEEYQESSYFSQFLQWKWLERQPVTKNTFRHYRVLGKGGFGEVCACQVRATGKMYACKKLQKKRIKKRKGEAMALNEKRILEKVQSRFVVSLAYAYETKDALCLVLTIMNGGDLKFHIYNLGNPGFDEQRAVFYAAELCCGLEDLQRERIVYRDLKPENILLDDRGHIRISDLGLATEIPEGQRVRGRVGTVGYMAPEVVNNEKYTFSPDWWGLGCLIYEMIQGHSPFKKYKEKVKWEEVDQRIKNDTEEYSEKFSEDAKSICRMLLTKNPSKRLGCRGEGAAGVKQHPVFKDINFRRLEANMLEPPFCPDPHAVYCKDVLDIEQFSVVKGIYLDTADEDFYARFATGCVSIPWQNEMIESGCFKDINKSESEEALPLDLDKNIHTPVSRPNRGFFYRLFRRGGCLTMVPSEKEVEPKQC

# Set 1
# SMILES: CC(=O)N[C@@H](Cc1c[nH]c2ccccc12)C(=O)N[C@@H](CCC(=O)C=[N+]=[N-])C(=O)OC(C)C
# Species: C57BL/6 CES1-/- mice, MC-38 tumour
# Dose: dose not given
# Added: anti-PD-1
# Baseline: initial
time,body weight
day 42 after inoculation,96.4% and 95.9% and 99.3% and 93% and 97.2% and 102%
day 35 after inoculation,91.2% and 99.1% and 98% and 92.1% and 95.7% and 95.9% and 98.7%
day 16 after inoculation,96.7% and 95.9% and 101% and 97.5% and 98.1% and 99.1%
day 66 after inoculation,106% and 100% and 101%
day 13 after inoculation,101% and 96.7% and 96.3% and 97.9% and 102% and 98.1% and 97.2%
day 61 after inoculation,91.9% and 92.2% and 103% and 102% and 107%
day 34 after inoculation,97% and 92.4% and 100% and 91.8% and 98.2% and 97.7% and 98%
day 20 after inoculation,97.8% and 95.2% and 96.2% and 98.2% and 100% and 95.4% and 101%

# Set 2
# Structure (SMILES): CC(=O)c1ccc(N2CCOCC2)cc1O
# Observed: enzyme activity
# Mode: inhibitor
# Concentration: 0.5 µM
# Baseline: control
target,remaining activity
"STK39 (Homo sapiens, UniProt Q9UEW8)",90.9%
"STK11 (Homo sapiens, UniProt Q15831)",103%
"DAPK2 (Homo sapiens, UniProt Q9UIK4)",106%
"STK10 (Homo sapiens, UniProt O94804)",101%
"TGFBR1 (Homo sapiens, UniProt P36897)",96.6%
"MAPK9 (Homo sapiens, UniProt P45984)",105%
"DAPK1 (Homo sapiens, UniProt P53355)",92.8%
"Cyclin-dependent kinase 5, with p25 (CDK5, Homo sapiens, UniProt Q00535)",99.7%

# Set 3
# SMILES: Ic1ccc(Nc2nc(NCCN3CCOCC3)nc(N3CCOCC3)n2)cc1
# Baseline: vehicle
tested on,test,test system,setting,enzyme activity
wild-type human fibroblasts,"GCase activity, 4-MUG hydrolysis lysate",,"1 µM, 48 h",108% and 110% and 116% and 115% and 98.1%
glucocerebrosidase L444P (human),4-MUG hydrolysis in lysate,Gaucher fibroblasts L444P/L444P,"10 µM, 72 h",140%
L444P/L444P Gaucher fibroblasts,4-MUG hydrolysis in lysate,,"1 µM, 72 h, without ISRIB",120% and 121% and 130% and 109% and 128% and 124% and 132%
L444P/L444P Gaucher fibroblasts,4-MUG hydrolysis in lysate,,"0.1 µM, 72 h",103% and 111% and 113% and 108% and 98.9% and 109%
L444P/L444P Gaucher fibroblasts,4-MUG hydrolysis in lysate,,"10 µM, 72 h",146% and 153% and 113% and 179% and 115% and 119%

# Set 4
# SMILES: CC(C)(C(=O)O)[C@H](NC(=O)Cc1cccc(I)c1)c1ccc2oc(=O)[nH]c2c1
# Method: Incucyte 3D growth
# Concentration: 30 µM
# Direction: higher = more growth
cell line,time,spheroid area
NCI-H358,204 h,1.12e+07 a.u. and 8.55e+06 a.u. and 8.26e+06 a.u. and 8.49e+06 a.u. and 6.62e+06 a.u.
KP-4,210 h,3.8e+07 a.u. and 5.61e+07 a.u. and 3.51e+07 a.u. and 3.71e+07 a.u. and 1.88e+07 a.u. and 3.63e+07 a.u.
A375,492.52 h,1.78e+08 a.u. and 1.55e+08 a.u. and 1.44e+08 a.u. and 1.4e+08 a.u. and 1.48e+08 a.u. and 1.57e+08 a.u.
A375,240.52 h,1.67e+08 a.u. and 1.74e+08 a.u. and 1.84e+08 a.u. and 1.91e+08 a.u. and 1.65e+08 a.u. and 1.62e+08 a.u.
A375,426.52 h,1.62e+08 a.u. and 1.8e+08 a.u. and 1.72e+08 a.u. and 1.81e+08 a.u. and 1.6e+08 a.u. and 1.47e+08 a.u.
IPC-298,132 h,2.49e+07 a.u. and 2.03e+07 a.u. and 3.09e+07 a.u. and 2.88e+07 a.u. and 2.7e+07 a.u. and 2.55e+07 a.u.
IPC-298,168 h,2.68e+07 a.u. and 2.86e+07 a.u. and 2.23e+07 a.u. and 2.73e+07 a.u. and 3.32e+07 a.u. and 2.98e+07 a.u.
MEL-JUSO,12.52 h,8.82e+06 a.u. and 8.55e+06 a.u. and 8.43e+06 a.u. and 7.97e+06 a.u. and 7.17e+06 a.u. and 9.63e+06 a.u.
A375,78.52 h,4.59e+07 a.u. and 3.89e+07 a.u. and 4.13e+07 a.u. and 5.74e+07 a.u. and 3.73e+07 a.u. and 4.72e+07 a.u.
IPC-298,192 h,2.69e+07 a.u. and 3.04e+07 a.u. and 2.26e+07 a.u. and 3.42e+07 a.u. and 2.87e+07 a.u.
A375,318.52 h,1.98e+08 a.u. and 1.75e+08 a.u. and 1.95e+08 a.u. and 1.76e+08 a.u. and 1.7e+08 a.u.

# Set 5
# SMILES: CC(C)(O)c1cncc(-c2nc3ccc(F)cc3n2C2CC2)c1
# Method: competition with immobilised ligand
# Concentration: 1 µM
target,observed,remaining binding [%]
"PRKD2 (Homo sapiens, UniProt Q9BZL6)",cell-free assay,100
"PAK4 (Homo sapiens, UniProt O96013)",cell-free assay,100
"Non-receptor tyrosine-protein kinase TYK2, JH2 (TYK2, Homo sapiens, UniProt P29597)",cell-free assay,94
"NEK1 (Homo sapiens, UniProt Q96PY6)",cell-free assay,100
"CDK8 (Homo sapiens, UniProt P49336)",cell-free assay,95
"FYN (Homo sapiens, UniProt P06241)",cell-free assay,100
"MAP2K3 (Homo sapiens, UniProt P46734)",cell-free assay,100
"TGFBR2 (Homo sapiens, UniProt P37173)",cell-free assay,100
"Ribosomal protein S6 kinase alpha-5, N-terminal kinase domain (RPS6KA5, Homo sapiens, UniProt O75582)",cell-free assay,100
"GRK4 (Homo sapiens, UniProt P32298)",cell-free assay,100
"PHKG2 (Homo sapiens, UniProt P15735)",cell-free assay,100
"MAP3K13 (Homo sapiens, UniProt O43283)",cell-free assay,100
"MAST1 (Homo sapiens, UniProt Q9Y2H9)",cell-free assay,100
"DYRK1B (Homo sapiens, UniProt Q9Y463)",binding,44
"RPS6KB1 (Homo sapiens, UniProt P23443)",cell-free assay,100
"PIK3CA (Homo sapiens, UniProt P42336, C420R)",cell-free assay,96
"Tyrosine-protein kinase ABL1, phosphorylated (ABL1, Homo sapiens, UniProt P00519, T315I)",cell-free assay,100
"MAP3K2 (Homo sapiens, UniProt Q9Y2U5)",cell-free assay,100
"MAPK15 (Homo sapiens, UniProt Q8TD08)",cell-free assay,90
"PAK3 (Homo sapiens, UniProt O75914)",cell-free assay,100
"CLK3 (Homo sapiens, UniProt P49761)",cell-free assay,100
"OXSR1 (Homo sapiens, UniProt O95747)",cell-free assay,100
"CDK3 (Homo sapiens, UniProt Q00526)",cell-free assay,100
"NUAK2 (Homo sapiens, UniProt Q9H093)",cell-free assay,100
"TAOK2 (Homo sapiens, UniProt Q9UL54)",cell-free assay,100

# Some of these lines once more (set 5):
target,observed,remaining binding [%]
"MAP2K3 (Homo sapiens, UniProt P46734)",cell-free assay,100
"TGFBR2 (Homo sapiens, UniProt P37173)",cell-free assay,100
"Ribosomal protein S6 kinase alpha-5, N-terminal kinase domain (RPS6KA5, Homo sapiens, UniProt O75582)",cell-free assay,100
"GRK4 (Homo sapiens, UniProt P32298)",cell-free assay,100
"PHKG2 (Homo sapiens, UniProt P15735)",cell-free assay,100
"MAP3K13 (Homo sapiens, UniProt O43283)",cell-free assay,100
